Experimental data gathered from unrelated publications.
Lines come from different studies, so protocols differ. ± gives the spread as reported.
UniProt P50750, sequence (whole entry, looked up): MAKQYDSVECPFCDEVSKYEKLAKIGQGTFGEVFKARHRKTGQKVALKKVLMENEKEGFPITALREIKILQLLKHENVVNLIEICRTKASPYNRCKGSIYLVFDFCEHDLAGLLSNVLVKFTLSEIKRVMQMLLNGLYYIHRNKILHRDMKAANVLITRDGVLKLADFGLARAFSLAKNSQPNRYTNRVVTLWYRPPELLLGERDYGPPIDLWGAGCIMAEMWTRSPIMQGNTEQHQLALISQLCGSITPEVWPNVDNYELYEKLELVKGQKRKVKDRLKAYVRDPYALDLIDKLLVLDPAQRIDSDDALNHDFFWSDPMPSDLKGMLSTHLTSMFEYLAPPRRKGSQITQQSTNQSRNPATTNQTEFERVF
UniProt P24666, sequence (whole entry, looked up): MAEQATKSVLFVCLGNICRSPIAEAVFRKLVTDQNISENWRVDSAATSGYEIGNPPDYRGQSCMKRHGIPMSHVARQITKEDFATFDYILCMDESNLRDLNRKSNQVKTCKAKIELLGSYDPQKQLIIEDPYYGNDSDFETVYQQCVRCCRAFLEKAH

| Structure (SMILES) | tested on | test | system | conditions | scale | endpoint | value |
| --- | --- | --- | --- | --- | --- | --- | --- |
| CC[C@H](C)[C@H](NC(=O)[C@H](Cc1ccccc1)NC(=O)[C@H](CCC(=O)O)NC(=O)[C@H](CCCNC(=N)N)NC(=O)[C@H](C)NC(=O)[C@H](C)NC(=O)[C@H](CCC(N)=O)NC(=O)[C@H](CCC(=O)O)NC(=O)[C@H](CCC(=O)O)NC(=O)[C@H](CC(C)C)NC(=O)[C@H](Cc1ccc(O)cc1)NC(=O)[C@H](CO)NC(=O)[C@H](CO)NC(=O)[C@@H](NC(=O)[C@H](CC(=O)O)NC(=O)[C@H](CO)NC(=O)[C@@H](NC(=O)[C@H](Cc1ccccc1)NC(=O)[C@@H](NC(=O)CNC(=O)[C@H](CCC(=O)O)NC(=O)[C@H](C)NC(=O)CCc1c[nH]cn1)[C@@H](C)O)[C@@H](C)O)C(C)C)C(=O)N[C@@H](C)C(=O)N[C@@H](Cc1c[nH]c2ccccc12)C(=O)N[C@@H](CC(C)C)C(=O)N[C@H](C(=O)N[C@@H](CCCNC(=N)N)C(=O)NCC(=O)N[C@@H](CCCNC(=N)N)C(=O)N[C@@H](CCCCNC(=O)COCCOCCNC(=O)COCCOCCNC(=O)CC[C@H](NC(=O)CCCCCCCCCCCCCCCCC(=O)O)C(=O)O)C(=O)NCC(=O)NCC(=O)N[C@@H](CO)C(=O)N[C@@H](CCCCNc1c(NCCCCCN(O)C(=O)CCC(=O)NCCCCCN(O)C(=O)CCC(=O)NCCCCCN(O)C(C)=O)c(=O)c1=O)C(=O)O)C(C)C [zirconium-89 labelled] |  |  | rat, brain | iv, 3 nmol/kg, 24 h, ex vivo |  | tissue uptake | 0.02 %ID/g |
| CCCCC1(CCCC)CN(c2ccccc2)c2cc(SC)c(OCC(=O)N[C@@H](C(=O)NCC(=O)O)c3ccccc3)cc2S(=O)(=O)C1 |  | refers to: HDL cholesterol | human, serum | 20 mg once daily, day 8 |  | serum HDL-C | 52.4 mg/dL |
| COc1c(CCC[P+](c2ccccc2)(c2ccccc2)c2ccccc2)cc2c(c1OC)OCO2.[I-] | A549 | NCI60 SRB |  |  |  | LC50 | > -4 log M |
| CN1CCN(S(=O)(=O)c2cc([N+](=O)[O-])ccc2N(CCOS(C)(=O)=O)CCOS(C)(=O)=O)CC1 |  |  | NSG mice, sample CF PDX | intraperitoneal, 25 mg/kg weekly x3 | reference: vehicle | EFS delay (T-C) | 150 days |
| CC(C)C[C@@H]1NC(=O)[C@H](CC(C)C)NC(=O)[C@H](Cc2c[nH]c3ccccc23)NC(=O)[C@H](CO)NC(=O)[C@H](Cc2c[nH]c3ccccc23)NC(=O)[C@@H]2CCCN2C(=O)[C@H](CC(C)C)NC(=O)[C@H](Cc2c[nH]cn2)NC(=O)[C@@H]2CCCN2C(=O)[C@H](CC(N)=O)NC(=O)[C@H](C)NC(=O)[C@H](Cc2ccc(O)cc2)NC(=O)[C@H](CS)NC(=O)[C@H](CCCCNC(=O)CN2CCN(CC(=O)O)CCN(CC(=O)O)CCN(CC(=O)O)CC2)NC1=O [lutetium-177 labelled] |  |  | Balb/c mouse, female, 4T1 tumour, liver | intravenous, 3.7 MBq, 72 h |  | tissue uptake | 2.45 %ID |
| CC(C)C[C@H](NC(=O)[C@H](Cc1ccccc1)NC(=O)c1cnccn1)B(O)O | human coronavirus OC43 | virus-induced cell killing | MRC-5 | maximum over 10 doses |  | maximum inhibition | 0% |
| CCCNCCc1c[nH]c2cccc(O)c12.CCCNCCc1c[nH]c2cccc(O)c12.O=C(O)/C=C/C(=O)O |  |  | C57BL/6J mice | subcutaneous, 0.3 mg/kg | reference: pre-session baseline | body temperature change | -0.1 ± 0.1 °C |
| COc1cc(CCC[P+](c2ccccc2)(c2ccccc2)c2ccccc2)c(OC)c2c1OCO2.[I-] | CAKI-1 | SRB |  |  |  | LC50 | > -4 log M |
| CC[C@H](C)[C@@H]1NC(=O)[C@@H]2CCCN2C(=O)[C@H](CC(C)C)NC(=O)[C@H](CC(C)C)NC(=O)CNC(=O)[C@@H](NC(=O)[C@@H](NC(=O)[C@H](CC(=O)O)NC(=O)CNC(=O)[C@@H](NC(=O)[C@H](C)NC(=O)CNC(=O)[C@H](CCCCN)NC(=O)[C@H](CC(C)C)NC(=O)[C@H](CC(C)C)NC(=O)[C@H](CCCCN)NC(=O)CNC(=O)[C@@H](NC(=O)[C@@H](N)CC(C)C)C(C)C)C(C)C)C(C)C)CSSC[C@@H](C(=O)O)NC1=O |  | RNA-seq, refers to: Apold1 | mouse, traumatic brain injury model, frontal cortex and hippocampus | dose not given | reference: TBI alone | log2 fold change | -1.19 |
| C[C@H]1CN(c2n[nH]c3nc(N[C@H]4CC[C@H](NS(=O)(=O)CCC(F)(F)F)CC4)ncc23)CCO1 | Cyclin-dependent kinase 9 (CDK9, Homo sapiens, UniProt P50750) | Kinobeads competition | HEK293, K562, placenta lysate | 0.032 µM, unit not given | reference: vehicle | remaining binding | 1.02 |
| Nc1ncnc2c1ncn2[C@@H]1O[C@@H]2COP(=O)(O)O[C@H]3[C@@H](O)[C@H](n4cnc5c(=O)[nH]cnc54)O[C@@H]3COP(=O)(O)O[C@H]2[C@H]1O | HFF-1 | RNA sequencing, refers to: ECM proteoglycans |  | downregulated pathway | reference: Zika virus alone | pathway fold enrichment | 9.37 |
| CN(C)CCCn1cc(C2=C(c3c[nH]c4ccccc34)C(=O)NC2=O)c2ccccc21 | human coronavirus OC43 | virus-induced cell killing | MRC-5 | screen |  | maximum inhibition | 3.38% |
| CCCCNCCc1c[nH]c2cccc(O)c12.O=C(O)/C=C/C(=O)O |  |  | C57BL/6J mice | subcutaneous, 1 mg/kg | reference: pre-session baseline | body temperature change | -0.2 ± 0.1 °C |
| O=C(Nc1c[nH]nc1-c1nc2ccc(CN3CCOCC3)cc2[nH]1)NC1CC1 | human coronavirus OC43 | virus-induced cell killing | MRC-5 | maximum over 10 doses |  | maximum inhibition | 0% |
| C[C@@H](O)[C@@H](CO)NC(=O)[C@@H](CCCNC(=N)N)NC(=O)[C@@H]1CCCN1C(=O)[C@@H]1CSSC[C@H](NC(=O)[C@H](Cc2ccccc2)NC(=O)CN2CCN(CC(=O)O)CCN(CC(=O)O)CCN(CC(=O)O)CC2)C(=O)N[C@@H](Cc2ccc(O)cc2)C(=O)N[C@@H](Cc2ccccc2)C(=O)N[C@@H](CCC(N)=O)C(=O)N[C@@H](CC(N)=O)C(=O)N1 [gallium-68 labelled] |  |  | healthy Wistar rat, lungs | intravenous, 8 MBq, 120 min, individual animals |  | tissue uptake | 0.08 %ID/g |
| c1ccc(Cn2nnc3c(Sc4nc5ccccc5o4)ncnc32)cc1 | human coronavirus OC43 | virus-induced cell killing | MRC-5 | screen |  | maximum inhibition | 13.5% |
| COc1cc(Nc2ncc(F)c(Nc3ccc4c(n3)NC(=O)C(C)(C)O4)n2)cc(OC)c1OC | Low molecular weight phosphotyrosine protein phosphatase, isoform A (ACP1, Homo sapiens, UniProt P24666) |  |  | LMPTP-A |  | IC50 | > 10 µM |
| COc1cc2c(Oc3ccc4[nH]c(C)cc4c3F)ccnc2cc1OCC1(N)CC1 |  |  | paediatric recurrent refractory sarcoma | 10 mg |  | grade 3 Proteinuria | 0% |

For quick reference, copied from above:
| Structure (SMILES) | tested on | test | system | conditions | scale | endpoint | value |
| --- | --- | --- | --- | --- | --- | --- | --- |
| CC(C)C[C@@H]1NC(=O)[C@H](CC(C)C)NC(=O)[C@H](Cc2c[nH]c3ccccc23)NC(=O)[C@H](CO)NC(=O)[C@H](Cc2c[nH]c3ccccc23)NC(=O)[C@@H]2CCCN2C(=O)[C@H](CC(C)C)NC(=O)[C@H](Cc2c[nH]cn2)NC(=O)[C@@H]2CCCN2C(=O)[C@H](CC(N)=O)NC(=O)[C@H](C)NC(=O)[C@H](Cc2ccc(O)cc2)NC(=O)[C@H](CS)NC(=O)[C@H](CCCCNC(=O)CN2CCN(CC(=O)O)CCN(CC(=O)O)CCN(CC(=O)O)CC2)NC1=O [lutetium-177 labelled] |  |  | Balb/c mouse, female, 4T1 tumour, liver | intravenous, 3.7 MBq, 72 h |  | tissue uptake | 2.45 %ID |
| c1ccc(Cn2nnc3c(Sc4nc5ccccc5o4)ncnc32)cc1 | human coronavirus OC43 | virus-induced cell killing | MRC-5 | screen |  | maximum inhibition | 13.5% |
| COc1cc2c(Oc3ccc4[nH]c(C)cc4c3F)ccnc2cc1OCC1(N)CC1 |  |  | paediatric recurrent refractory sarcoma | 10 mg |  | grade 3 Proteinuria | 0% |
